Assay results of several laboratories.
A part holds a random share of what one study measured. Values joined by “and” are separate records of one study, mostly repeats; a detail may differ.
UniProt Q99755, sequence (whole entry, looked up): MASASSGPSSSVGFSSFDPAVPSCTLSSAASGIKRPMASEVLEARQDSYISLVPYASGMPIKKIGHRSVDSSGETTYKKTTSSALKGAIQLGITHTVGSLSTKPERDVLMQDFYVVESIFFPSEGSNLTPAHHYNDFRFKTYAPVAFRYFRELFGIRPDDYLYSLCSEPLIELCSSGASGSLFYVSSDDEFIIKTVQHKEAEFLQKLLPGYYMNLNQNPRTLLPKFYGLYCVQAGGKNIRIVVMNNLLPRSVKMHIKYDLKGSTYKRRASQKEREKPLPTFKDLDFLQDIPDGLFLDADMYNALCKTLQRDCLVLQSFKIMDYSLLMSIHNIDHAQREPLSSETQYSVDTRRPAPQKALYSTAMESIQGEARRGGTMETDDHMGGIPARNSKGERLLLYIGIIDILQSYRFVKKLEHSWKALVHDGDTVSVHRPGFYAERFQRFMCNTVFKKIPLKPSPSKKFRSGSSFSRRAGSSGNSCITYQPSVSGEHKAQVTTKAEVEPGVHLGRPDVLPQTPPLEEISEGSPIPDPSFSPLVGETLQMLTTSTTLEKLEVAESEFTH
UniProt Q06418, sequence (whole entry, looked up): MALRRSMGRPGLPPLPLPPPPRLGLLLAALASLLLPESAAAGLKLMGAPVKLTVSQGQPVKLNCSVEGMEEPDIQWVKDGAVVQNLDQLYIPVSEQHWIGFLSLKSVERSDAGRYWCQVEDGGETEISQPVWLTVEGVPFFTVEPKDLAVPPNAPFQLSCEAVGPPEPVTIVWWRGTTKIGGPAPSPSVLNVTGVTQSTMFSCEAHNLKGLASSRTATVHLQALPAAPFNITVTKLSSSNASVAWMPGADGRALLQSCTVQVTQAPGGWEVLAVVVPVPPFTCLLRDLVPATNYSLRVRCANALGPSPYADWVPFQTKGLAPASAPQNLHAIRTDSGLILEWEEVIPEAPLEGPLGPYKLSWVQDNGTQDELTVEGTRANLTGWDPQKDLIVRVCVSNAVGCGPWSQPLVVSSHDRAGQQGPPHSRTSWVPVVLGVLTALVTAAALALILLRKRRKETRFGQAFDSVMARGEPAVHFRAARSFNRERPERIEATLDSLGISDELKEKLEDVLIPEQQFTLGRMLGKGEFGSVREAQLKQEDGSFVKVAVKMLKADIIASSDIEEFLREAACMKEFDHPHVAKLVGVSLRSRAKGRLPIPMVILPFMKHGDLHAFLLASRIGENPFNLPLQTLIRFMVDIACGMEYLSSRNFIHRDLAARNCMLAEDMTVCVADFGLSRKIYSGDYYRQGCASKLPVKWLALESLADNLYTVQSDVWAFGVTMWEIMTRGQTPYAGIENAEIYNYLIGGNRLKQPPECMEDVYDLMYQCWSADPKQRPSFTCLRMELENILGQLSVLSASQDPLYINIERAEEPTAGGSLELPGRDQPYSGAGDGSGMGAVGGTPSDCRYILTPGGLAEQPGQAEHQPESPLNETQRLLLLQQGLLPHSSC
UniProt Q99683, sequence (whole entry, looked up): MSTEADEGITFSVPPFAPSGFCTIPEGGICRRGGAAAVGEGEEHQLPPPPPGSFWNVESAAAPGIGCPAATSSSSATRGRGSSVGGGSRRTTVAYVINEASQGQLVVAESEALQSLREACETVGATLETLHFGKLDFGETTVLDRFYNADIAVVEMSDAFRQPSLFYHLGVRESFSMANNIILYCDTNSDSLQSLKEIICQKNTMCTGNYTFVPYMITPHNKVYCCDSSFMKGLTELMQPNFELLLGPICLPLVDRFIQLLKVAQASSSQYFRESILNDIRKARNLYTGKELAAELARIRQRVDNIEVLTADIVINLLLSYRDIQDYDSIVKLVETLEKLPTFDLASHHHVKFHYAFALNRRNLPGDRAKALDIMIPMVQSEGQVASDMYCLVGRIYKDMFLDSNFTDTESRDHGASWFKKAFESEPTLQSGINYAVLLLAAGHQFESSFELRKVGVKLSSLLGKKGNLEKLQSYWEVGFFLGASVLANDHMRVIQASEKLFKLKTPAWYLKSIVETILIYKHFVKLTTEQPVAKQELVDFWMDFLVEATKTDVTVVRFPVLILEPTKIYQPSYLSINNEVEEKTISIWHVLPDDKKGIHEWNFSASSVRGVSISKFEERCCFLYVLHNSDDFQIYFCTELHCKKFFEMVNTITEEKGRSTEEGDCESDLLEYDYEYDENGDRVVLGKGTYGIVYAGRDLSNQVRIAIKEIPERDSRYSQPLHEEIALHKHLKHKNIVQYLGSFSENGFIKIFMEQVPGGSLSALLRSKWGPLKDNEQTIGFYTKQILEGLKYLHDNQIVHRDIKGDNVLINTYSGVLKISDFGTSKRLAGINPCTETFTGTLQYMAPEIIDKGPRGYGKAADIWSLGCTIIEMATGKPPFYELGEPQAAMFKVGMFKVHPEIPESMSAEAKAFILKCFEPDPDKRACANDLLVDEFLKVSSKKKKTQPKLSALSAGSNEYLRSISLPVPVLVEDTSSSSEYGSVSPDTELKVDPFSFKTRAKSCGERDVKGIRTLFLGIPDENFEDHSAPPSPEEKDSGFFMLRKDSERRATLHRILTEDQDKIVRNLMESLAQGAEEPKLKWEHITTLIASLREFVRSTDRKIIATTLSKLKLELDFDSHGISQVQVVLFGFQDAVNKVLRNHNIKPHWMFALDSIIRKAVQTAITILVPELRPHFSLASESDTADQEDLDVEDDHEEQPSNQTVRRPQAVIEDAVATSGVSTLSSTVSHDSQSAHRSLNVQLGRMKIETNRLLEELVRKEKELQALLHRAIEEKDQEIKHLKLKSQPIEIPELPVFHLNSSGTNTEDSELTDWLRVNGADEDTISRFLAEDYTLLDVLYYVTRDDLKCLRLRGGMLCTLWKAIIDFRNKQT
UniProt Q92918, sequence (whole entry, looked up): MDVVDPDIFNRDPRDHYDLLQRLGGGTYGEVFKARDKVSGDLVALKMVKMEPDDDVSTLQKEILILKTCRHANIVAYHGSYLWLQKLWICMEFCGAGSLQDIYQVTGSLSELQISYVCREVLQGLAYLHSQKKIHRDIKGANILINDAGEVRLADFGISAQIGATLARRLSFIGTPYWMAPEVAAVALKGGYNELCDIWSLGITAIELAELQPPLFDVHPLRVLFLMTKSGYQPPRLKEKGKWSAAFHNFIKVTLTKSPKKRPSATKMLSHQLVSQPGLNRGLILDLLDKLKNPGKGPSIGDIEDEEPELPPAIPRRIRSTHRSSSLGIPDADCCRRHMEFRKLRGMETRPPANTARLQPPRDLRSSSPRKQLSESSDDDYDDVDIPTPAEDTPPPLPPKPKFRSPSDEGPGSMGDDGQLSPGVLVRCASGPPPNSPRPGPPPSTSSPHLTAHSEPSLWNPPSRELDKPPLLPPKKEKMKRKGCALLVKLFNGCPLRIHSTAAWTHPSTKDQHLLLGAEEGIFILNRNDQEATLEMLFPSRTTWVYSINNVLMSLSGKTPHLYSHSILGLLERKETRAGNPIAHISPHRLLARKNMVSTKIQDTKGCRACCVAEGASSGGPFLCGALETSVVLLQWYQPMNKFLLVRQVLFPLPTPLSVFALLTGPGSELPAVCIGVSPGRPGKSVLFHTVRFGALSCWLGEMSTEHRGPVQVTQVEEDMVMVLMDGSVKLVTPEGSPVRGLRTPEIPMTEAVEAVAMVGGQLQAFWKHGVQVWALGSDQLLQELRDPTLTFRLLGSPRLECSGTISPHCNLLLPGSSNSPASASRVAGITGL

Series 1
Cell line: HaCaT
Concentration: 100 µM
Time: 36 h
SMILES | viability [%]
CCN(CC)CCNC(C(=O)OCCC(C)C)c1ccccc1 (stereo not shown) | 67.8
CC1=C(/C=C/C(C)=C/C=C/C(C)=C\C(=O)O)C(C)(C)CCC1 | 89.1
CCCCCCOC(=O)NC(=N)c1ccc(NCc2nc3cc(C(=O)N(CCC(=O)OCC)c4ccccn4)ccc3n2C)cc1 | 7.58
Cn1nnc2c(C(N)=O)ncn2c1=O | 114

Series 2
Target: Serine/threonine-protein kinase Nek4 (NEK4, Homo sapiens, UniProt P51957)
UniProt P51957, sequence (whole entry, looked up): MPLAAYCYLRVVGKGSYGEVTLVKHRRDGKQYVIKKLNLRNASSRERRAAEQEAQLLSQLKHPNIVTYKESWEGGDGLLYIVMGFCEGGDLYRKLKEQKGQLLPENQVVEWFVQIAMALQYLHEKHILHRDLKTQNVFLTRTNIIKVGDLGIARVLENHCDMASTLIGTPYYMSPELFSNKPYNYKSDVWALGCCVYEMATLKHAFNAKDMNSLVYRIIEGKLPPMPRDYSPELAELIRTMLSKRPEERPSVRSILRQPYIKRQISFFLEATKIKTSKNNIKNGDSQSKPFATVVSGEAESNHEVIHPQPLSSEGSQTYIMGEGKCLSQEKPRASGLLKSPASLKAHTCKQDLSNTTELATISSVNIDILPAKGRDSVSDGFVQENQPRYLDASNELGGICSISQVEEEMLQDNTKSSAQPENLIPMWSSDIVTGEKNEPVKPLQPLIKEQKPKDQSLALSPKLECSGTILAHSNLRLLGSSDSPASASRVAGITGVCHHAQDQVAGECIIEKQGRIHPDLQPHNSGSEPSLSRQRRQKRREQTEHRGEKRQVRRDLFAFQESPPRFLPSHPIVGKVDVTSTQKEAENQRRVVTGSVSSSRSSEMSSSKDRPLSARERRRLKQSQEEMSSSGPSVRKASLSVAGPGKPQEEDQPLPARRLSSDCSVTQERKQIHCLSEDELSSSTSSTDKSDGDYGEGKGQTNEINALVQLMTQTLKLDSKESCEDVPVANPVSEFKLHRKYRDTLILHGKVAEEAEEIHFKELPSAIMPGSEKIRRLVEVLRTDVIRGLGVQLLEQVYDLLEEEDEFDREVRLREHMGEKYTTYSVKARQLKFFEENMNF
Read-out: enzyme activity
Action: inhibitor
Concentration: 0.5 µM
Baseline: control
Structure (SMILES) | remaining activity [%]
CCOC(=O)c1c(C)[nH]c(/C=C2\C(=O)Nc3ccccc32)c1C | 95.1
Cc1ccc(NC(=O)c2ccc(CN3CCN(C)CC3)cc2)cc1Nc1nc(-c2cccnc2)cs1 | 92.4
C#Cc1cccc(Nc2ncnc3cc(OCCOC)c(OCCOC)cc23)c1 | 100
O=C1NC(=O)C(c2cn(CCCO)c3ncccc23)=C1c1cnccn1 | 85.1
COc1cc2ncnc(Nc3ccc(F)c(Cl)c3)c2cc1OCCCN1CCOCC1 | 103
Cn1sc(=O)n(Cc2ccccc2)c1=O | 98
O=C(Nc1cccc(Nc2cc(Nc3cccc(C(F)(F)F)c3)ncn2)c1)C1CC1 | 90.6
OCC(O)CCON=C1C(c2c(O)[nH]c3ccccc23)=Nc2ccccc21 (stereo not shown) | 83.9
O=C1NC(=O)C(c2cn(CCCn3ccnc3)c3ccccc23)=C1Nc1ccccc1 | 94.9
Cc1ccc(Nc2nccc(N(C)c3ccc4c(C)n(C)nc4c3)n2)cc1S(N)(=O)=O | 91.1
CNC(=O)c1cc(Oc2ccc(NC(=O)Nc3ccc(Cl)c(C(F)(F)F)c3)cc2)ccn1 | 99.5
COc1cc2nccc(Oc3ccc(NC(=S)NC(=O)c4ccccc4C)cc3)c2cc1OC | 97.6
Cc1nc(-c2ccccc2)c(-c2ccncc2)o1 | 100
O=C(CCCc1ccc(-c2ccccc2F)cc1)Nc1ccc(O)cc1 | 103
COc1ccc(CNC(=O)Nc2ncc([N+](=O)[O-])s2)cc1 | 91
CN(C)c1ccc(C=C2C(=O)Nc3ccccc32)cc1 | 102

Series 3
Structure (SMILES): CN([C@@H]1CCc2c(CC(=O)O)c3cc(S(C)(=O)=O)ccc3n2C1)S(=O)(=O)c1ccc(F)cc1
Read-out: cell-free assay
Method: competition with immobilised ligand
Concentration: 1 µM
target | remaining binding [%]
PIP5K1A (Homo sapiens, UniProt Q99755) | 100
MAP3K5 (Homo sapiens, UniProt Q99683) | 90
GRK2 (Homo sapiens, UniProt P25098) | 84
MAP4K1 (Homo sapiens, UniProt Q92918) | 100
TYRO3 (Homo sapiens, UniProt Q06418) | 91

Series 4
Organism: Sarcocystis neurona
Read-out: parasite growth
Concentration: 10 µM
Notes: secondary screen
Compound | inhibition
C[C@H]1O[C@H](O[C@H]2[C@H](O)[C@@H](O)[C@@H](O[C@H]3[C@H](O)[C@@H](O)C(O)O[C@@H]3CO)O[C@@H]2CO)[C@H](O)[C@@H](O)[C@@H]1N[C@H]1C=C(CO)[C@@H](O)[C@H](O)[C@H]1O (stereo partly shown) | -24.4%
CS(=O)(=O)c1ccc(-c2cc(Br)sc2-c2ccc(F)cc2)cc1 | 4%
O=C1CN2Cc3c(ccc(Cl)c3Cl)N=C2N1 | -21.4%
O=c1[nH]cc(F)c(=O)[nH]1 | 59.5%

Series 5
SMILES: CCOc1ccc(Nc2c3c(nc4ccccc24)CCC3)cc1
Organism: Leishmania donovani
Read-out: parasite killing
Strain: DD8
sample | concentration | time | inhibition
intracellular amastigotes | 80 µM | 24 h | 100%
promastigotes | 3.33 µM | 24 h | 43% and 40% and 48%
intracellular amastigotes | 80 µM | 72 h | 100%
promastigotes | 16.66 µM | 72 h | 100%
intracellular amastigotes | 40 µM | 48 h | 100%
